Measured values gathered from unrelated publications.
Every numbered part comes from another study and shows a few of its results, in no order. Several values in a cell are separate wells, animals, samples, runs or records.

Set 1
Compound: CCCCC[C@@H](O)CC(=O)N[C@@H]1C(=O)N[C@H](CCCNC(=N)N)C(=O)N[C@@H](CO)C(=O)NCC(=O)N(C)[C@H](Cc2ccccc2)C(=O)N[C@@H](CC(C)C)C(=O)N[C@H](CCCNC(=N)N)C(=O)N[C@@H](CO)C(=O)N[C@H]([C@H](C)O)C(=O)N[C@H](Cc2c[nH]c3ccccc23)C(=O)N[C@@H]([C@@H](C)CC)C(=O)NCC(=O)O[C@@H]1C
Organism: Staphylococcus aureus
Strain: USA300
Tested at: 2 x MIC
It gave 300 CFU/mL and 400 CFU/mL and 500 CFU/mL for viable cells (360 min).
0 min — viable cells: 4.4e+08 CFU/mL and 4e+08 CFU/mL and 3.9e+08 CFU/mL.
For 15 min: viable cells read 3500 CFU/mL and 3300 CFU/mL and 3900 CFU/mL.
For 180 min: viable cells read 1000 CFU/mL and 500 CFU/mL and 800 CFU/mL.

Set 2
Cell line: mouse MPNST tumor cells
Technique: high-content immunofluorescence imaging
Refers to: nuclear SOX9
Tested at: 10 µM
Time: 12 h
Setting: mean of 2 replicates
Relative to: DMSO control
Direction: higher = more nuclear SOX9
Under “nuclear SOX9 intensity”, O=C1NC(=O)c2c1c1c3ccccc3[nH]c1c1[nH]c3ccccc3c21 is recorded as 103 % of DMSO.
O=C(Oc1ccc(Br)cc1)N1CCN2CCC1CC2: “nuclear SOX9 intensity” 94.5 % of DMSO.
Cc1cccc(C)c1NC1=NCCCS1 — result for “nuclear SOX9 intensity”: 114 % of DMSO.
For C[C@]12CCC(=O)C(O)=C1CC[C@@H]1[C@@H]2CC[C@]2(C)C(=O)CC[C@@H]12, “nuclear SOX9 intensity” read 99.2 % of DMSO.
For c1ccc2c(c1)OCC(C1=NCCN1)O2 (centres unmarked), “nuclear SOX9 intensity” read 103 % of DMSO.
Clc1cccc(SC2CCNCC2)n1 — result for “nuclear SOX9 intensity”: 98.3 % of DMSO.
NCCc1c[nH]c2ccc(O)cc12: “nuclear SOX9 intensity” 105 % of DMSO.
Under “nuclear SOX9 intensity”, COc1ccc(CN2CCNCC2)c(OC)c1OC is recorded as 150 % of DMSO.
O=C1CN=C(c2ccc[nH]2)c2cc(Cl)ccc2N1 — result for “nuclear SOX9 intensity”: 113 % of DMSO.
C[C@@H]1CN(Cc2ccc(F)cc2)CCN1C(=O)COc1ccc(Cl)cc1NC(N)=O: “nuclear SOX9 intensity” 84.5 % of DMSO.
Under “nuclear SOX9 intensity”, CC(=O)N(C)c1cccc(-c2ccnc3c(C(=O)c4cccs4)cnn23)c1 is recorded as 109 % of DMSO.
Under “nuclear SOX9 intensity”, CCC(COC(=O)c1cc(OC)c(OC)c(OC)c1)(c1ccccc1)N(C)C (centres unmarked) is recorded as 98 % of DMSO.
Under “nuclear SOX9 intensity”, FC(F)(F)c1cccc(C2=CCN(CCc3ccc4ccccc4c3)CC2)c1 is recorded as 91.2 % of DMSO.
Under “nuclear SOX9 intensity”, C1CCc2nnnn2CC1 is recorded as 99.2 % of DMSO.

Set 3
Cell line: Huh-7
Tested at: 10 µM
Time: 24 h
For C[C@@H](CO)NC(=O)[C@@H]1C=C2c3cccc4[nH]cc(c34)C[C@H]2N(C)C1, the viability was 97.6%.
NC(=O)CN1CCCC1=O has a viability of 101%.
The viability of COC(=O)C1=CCCN(C)C1 is reported as 102%.

Set 4
Target: Eukaryotic initiation factor 4A-I (EIF4A1, Homo sapiens, UniProt P60842)
UniProt P60842, sequence (whole entry, looked up): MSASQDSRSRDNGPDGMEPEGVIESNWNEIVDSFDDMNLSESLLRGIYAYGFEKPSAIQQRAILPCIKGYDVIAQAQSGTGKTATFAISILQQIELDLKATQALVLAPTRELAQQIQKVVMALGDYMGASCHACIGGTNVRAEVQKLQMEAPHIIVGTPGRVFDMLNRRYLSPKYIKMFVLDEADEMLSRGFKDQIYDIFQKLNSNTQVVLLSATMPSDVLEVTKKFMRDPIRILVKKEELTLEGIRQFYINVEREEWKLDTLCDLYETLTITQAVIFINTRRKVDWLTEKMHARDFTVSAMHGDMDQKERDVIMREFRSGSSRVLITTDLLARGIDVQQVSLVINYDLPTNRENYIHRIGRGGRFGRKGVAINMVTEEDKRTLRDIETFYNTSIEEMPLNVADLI
Effect on: RNA clamping
Technique: fluorescence polarization
Tested at: concentration not given
Added: FAM-labelled poly r(AG)8 RNA
Direction: higher = more clamping
COc1ccc([C@@]23Oc4cc(OC)cc(OC)c4[C@]2(O)c2nc(-c4cccc(C)c4)[nH]c(=O)c2[C@H]3c2ccccc2)cc1 — result for “fluorescence polarization change”: 9.9 mP.
C#CCOc1nc(-c2ccccc2)nc2c1[C@@H](c1ccccc1)[C@]1(c3ccc(OC)cc3)Oc3cc(OC)cc(OC)c3[C@]21OCC#C — result for “fluorescence polarization change”: 17.5 mP.
COC(=O)[C@@H]1[C@@H](c2ccccc2)[C@]2(c3ccc(OC)cc3)Oc3cc(OC)cc(OC)c3[C@@]1(O)[C@H]2O — result for “fluorescence polarization change”: 10.2 mP.
CCOc1ccccc1-c1nc2c(c(=O)[nH]1)[C@@H](c1ccccc1)[C@]1(c3ccc(OC)cc3)Oc3cc(OC)cc(OC)c3[C@]21O: “fluorescence polarization change” 57.2 mP.
COCCN[C@]12c3c(OC)cc(OC)cc3O[C@@]1(c1ccc(OC)cc1)[C@H](c1ccccc1)[C@@H](C(=O)N(C)C)[C@H]2O: “fluorescence polarization change” 10 mP.
For COC(=O)[C@@H]1[C@@H](c2ccccc2)[C@]2(c3ccc(OC)cc3)Oc3cc(OC)cc(OC)c3[C@@]23N=C(C2CC2)N[C@@]13O, “fluorescence polarization change” read 86.1 mP and 62.7 mP.
COc1ccc([C@@]23Oc4cc(OC)cc(OC)c4[C@]2(O)c2nc(Cc4ccccc4)[nH]c(=O)c2[C@H]3c2ccccc2)cc1: “fluorescence polarization change” 33.2 mP.
For COC(=O)[C@@H]1[C@@H](c2ccccc2)C2(c3ccc(OC)cc3)C(=O)C1(O)c1ccccc1N2C (some centres unmarked), “fluorescence polarization change” read -0.3 mP.
COCC1=N[C@@]2(O)[C@H](C(=O)OC)[C@@H](c3ccccc3)[C@]3(c4ccc(OC)cc4)Oc4cc(OC)cc(OC)c4[C@]23N1: “fluorescence polarization change” 71.7 mP and 58.7 mP.
For COC(=O)[C@@H]1[C@@H](c2ccccc2)[C@@]2(c3ccc(Br)cc3)C(=O)[C@]1(O)c1c(OC)cc(OC)cc1N2C, “fluorescence polarization change” read 7.9 mP.
COC(=O)[C@@H]1[C@@H](c2ccccc2)[C@]2(c3ccc(Br)cc3)Oc3cc(OC)cc(OC)c3[C@@]1(O)C2(O)O — result for “fluorescence polarization change”: 8.2 mP.

Repeated from above (set 2):
Under “nuclear SOX9 intensity”, O=C1NC(=O)c2c1c1c3ccccc3[nH]c1c1[nH]c3ccccc3c21 is recorded as 103 % of DMSO.
Under “nuclear SOX9 intensity”, CCC(COC(=O)c1cc(OC)c(OC)c(OC)c1)(c1ccccc1)N(C)C (centres unmarked) is recorded as 98 % of DMSO.
For C[C@]12CCC(=O)C(O)=C1CC[C@@H]1[C@@H]2CC[C@]2(C)C(=O)CC[C@@H]12, “nuclear SOX9 intensity” read 99.2 % of DMSO.
